Assay results collected from several papers.
Each line is one published result; not all experiments were run side by side. Numbers after ± are the reported error.

`CCCC[C@H](NC(=O)CNC(=O)CNC(=O)CN1CCN(CC(=O)O)CCN(CC(=O)O)CCN(CC(=O)O)CC1)C(=O)N[C@H]1CC(=O)NCCCC[C@@H](C(N)=O)NC(=O)[C@H](Cc2c[nH]c3ccccc23)NC(=O)[C@H](CCCNC(=N)N)NC(=O)[C@@H](Cc2ccccc2)NC(=O)[C@H](Cc2c[nH]cn2)NC1=O` [gallium-67 labelled] gave a tissue uptake of 25.5 ± 2.22 %ID/g (female C57 mice, B16/F1 melanoma, tumor; intravenous, 0.037 MBq, 2 h).
`CCCC[C@@H]1NC(=O)[C@@H](NC(=O)[C@H](CCC(=O)O)NC(=O)CNC(=O)CN2CCN(CC(=O)O)CCN(CC(=O)O)CCN(CC(=O)O)CC2)CCCCNC(=O)C[C@@H](C(N)=O)NC(=O)[C@H](C(C)C)NC(=O)[C@@H]2CCCN2C(=O)[C@H](CCCNC(=N)N)NC(=O)CNC(=O)[C@H](Cc2c[nH]c3ccccc23)NC(=O)[C@H](CCCNC(=N)N)NC(=O)[C@@H](Cc2ccccc2)NC(=O)[C@H](Cc2c[nH]cn2)NC(=O)[C@H](CCC(=O)O)NC1=O` [gallium-67 labelled] has a tissue uptake of 0.42 ± 0.01 %ID/g (C57 mice, B16/F10 lung metastatic melanoma, liver; intravenous, 0.037 MBq, 2 h).
`CN1C(=O)[C@@H](Cc2ccc(O)c(I)c2)NC(=O)CNC(=O)[C@H](Cc2ccc3ccccc3c2)NC(=O)[C@H](CCCNC(=N)N)NC(=O)[C@H]1CCCNC(=O)c1ccc(CNC(=O)CN2CCN(CC(=O)O)CCN(CC(=O)O)CCN(CC(=O)O)CC2)cc1` [lutetium-177 labelled] gave a tissue uptake of 0.007 ± 0.002 %ID/g (refers to: 177Lu radioactivity; female CB-17 SCID mice, Daudi xenograft, brain; intravenous, 0.16 nmol per mouse, 48 h).
The tissue uptake of `O=C([O-])CN1CCN(CC(=O)[O-])CCN(CC(=O)[O-])CCN(CC(=O)[O-])CC1.[64Cu+2]` is reported as 2.77 %ID/g (healthy athymic nude mice, blood; intravenous, 15 min).
`N=C(N)NCCC[C@H](NC(=O)CON=C[C@H](F)[C@@H](O)[C@H](O)[C@H](O)CO)C(=O)NCC(=O)N[C@@H](CC(=O)O)C(=O)O` [fluorine-18 labelled] gave a tissue ratio of 3.5 ± 1.9 (nude mice, U-87 MG xenograft; intravenous, 2 h; relative to: tumour over muscle).
`O=C([O-])CN1CCN(CC(=O)[O-])CCN(CC(=O)NCCc2ccc3c(c2)C2C=CCC2C(c2cc4c(cc2Br)OCO4)N3)CCN(CC(=O)[O-])CC1.[111In+3]` (centres unmarked) has a tissue uptake of 1.58 ± 0.41 %ID/g (mice with Hec50 tumour xenograft, Hec50 tumour; 1 h).
`O=C([O-])c1cccc(CN(CCN(Cc2cn(Cc3ccccc3)nn2)Cc2cccc(C(=O)[O-])n2)Cc2cn(Cc3ccccc3)nn2)n1.[64Cu+2]` has a tissue uptake of 1.3 %ID/g (nude athymic mice, healthy, femur; intravenous, 1 h, 64Cu label).
`NC12CNCCNCC(NCc3ccc(CNC(=O)CCCC(=O)NCc4ccc(-c5nncnn5)cc4)cc3)(CNCCNC1)CNCCNC2.[64Cu+2]` gave a tissue uptake of 5.2 ± 1.4 %ID/g (athymic nude mice SW1222 xenograft, tumor; 4 h post injection, 48 h accumulation interval, with: huA33-TCO pretargeting).

Repeated from above:
`CCCC[C@H](NC(=O)CNC(=O)CNC(=O)CN1CCN(CC(=O)O)CCN(CC(=O)O)CCN(CC(=O)O)CC1)C(=O)N[C@H]1CC(=O)NCCCC[C@@H](C(N)=O)NC(=O)[C@H](Cc2c[nH]c3ccccc23)NC(=O)[C@H](CCCNC(=N)N)NC(=O)[C@@H](Cc2ccccc2)NC(=O)[C@H](Cc2c[nH]cn2)NC1=O` [gallium-67 labelled] gave a tissue uptake of 25.5 ± 2.22 %ID/g (female C57 mice, B16/F1 melanoma, tumor; intravenous, 0.037 MBq, 2 h).
